{"data": "Results of several laboratories", "rep main protease": "Replicase polyprotein 1ab, main protease (rep, Porcine epidemic diarrhea virus, UniProt P0C6Y4)", "rep papain-like protease": "Replicase polyprotein 1ab, papain-like protease (rep, Porcine epidemic diarrhea virus, UniProt P0C6Y4)", "HDAC6 ZnF-UBD domain": "Protein deacetylase HDAC6, ZnF-UBD domain (HDAC6, Homo sapiens, UniProt Q9UBN7)", "note": "Compare with care: the assays were run in different laboratories. Several values in a cell are separate wells, animals, samples, runs or records. ± marks the error that the study gave.", "chain of UniProt Q8IWT6 (whole entry, unmodified, looked up)": "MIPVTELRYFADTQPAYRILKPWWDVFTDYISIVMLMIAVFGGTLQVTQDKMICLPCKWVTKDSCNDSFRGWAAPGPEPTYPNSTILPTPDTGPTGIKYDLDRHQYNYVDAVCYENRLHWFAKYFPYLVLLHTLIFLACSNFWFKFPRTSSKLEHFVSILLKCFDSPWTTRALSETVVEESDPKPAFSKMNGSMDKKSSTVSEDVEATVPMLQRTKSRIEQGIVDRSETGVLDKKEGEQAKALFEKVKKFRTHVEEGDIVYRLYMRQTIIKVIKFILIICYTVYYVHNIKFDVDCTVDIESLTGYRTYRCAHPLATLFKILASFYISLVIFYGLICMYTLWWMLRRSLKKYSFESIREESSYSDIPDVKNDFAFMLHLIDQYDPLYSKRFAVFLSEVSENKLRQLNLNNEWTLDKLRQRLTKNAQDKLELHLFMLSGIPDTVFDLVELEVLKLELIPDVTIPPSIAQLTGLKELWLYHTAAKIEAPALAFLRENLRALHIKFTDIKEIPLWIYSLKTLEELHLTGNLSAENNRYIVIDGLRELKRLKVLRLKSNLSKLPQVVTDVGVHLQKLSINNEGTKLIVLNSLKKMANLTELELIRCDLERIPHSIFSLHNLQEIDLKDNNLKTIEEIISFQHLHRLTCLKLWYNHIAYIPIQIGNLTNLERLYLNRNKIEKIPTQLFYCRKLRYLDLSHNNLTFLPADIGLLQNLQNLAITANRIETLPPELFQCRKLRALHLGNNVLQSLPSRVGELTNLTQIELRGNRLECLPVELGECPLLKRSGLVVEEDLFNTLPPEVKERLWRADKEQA", "chain of UniProt P35580 (whole entry, looked up)": "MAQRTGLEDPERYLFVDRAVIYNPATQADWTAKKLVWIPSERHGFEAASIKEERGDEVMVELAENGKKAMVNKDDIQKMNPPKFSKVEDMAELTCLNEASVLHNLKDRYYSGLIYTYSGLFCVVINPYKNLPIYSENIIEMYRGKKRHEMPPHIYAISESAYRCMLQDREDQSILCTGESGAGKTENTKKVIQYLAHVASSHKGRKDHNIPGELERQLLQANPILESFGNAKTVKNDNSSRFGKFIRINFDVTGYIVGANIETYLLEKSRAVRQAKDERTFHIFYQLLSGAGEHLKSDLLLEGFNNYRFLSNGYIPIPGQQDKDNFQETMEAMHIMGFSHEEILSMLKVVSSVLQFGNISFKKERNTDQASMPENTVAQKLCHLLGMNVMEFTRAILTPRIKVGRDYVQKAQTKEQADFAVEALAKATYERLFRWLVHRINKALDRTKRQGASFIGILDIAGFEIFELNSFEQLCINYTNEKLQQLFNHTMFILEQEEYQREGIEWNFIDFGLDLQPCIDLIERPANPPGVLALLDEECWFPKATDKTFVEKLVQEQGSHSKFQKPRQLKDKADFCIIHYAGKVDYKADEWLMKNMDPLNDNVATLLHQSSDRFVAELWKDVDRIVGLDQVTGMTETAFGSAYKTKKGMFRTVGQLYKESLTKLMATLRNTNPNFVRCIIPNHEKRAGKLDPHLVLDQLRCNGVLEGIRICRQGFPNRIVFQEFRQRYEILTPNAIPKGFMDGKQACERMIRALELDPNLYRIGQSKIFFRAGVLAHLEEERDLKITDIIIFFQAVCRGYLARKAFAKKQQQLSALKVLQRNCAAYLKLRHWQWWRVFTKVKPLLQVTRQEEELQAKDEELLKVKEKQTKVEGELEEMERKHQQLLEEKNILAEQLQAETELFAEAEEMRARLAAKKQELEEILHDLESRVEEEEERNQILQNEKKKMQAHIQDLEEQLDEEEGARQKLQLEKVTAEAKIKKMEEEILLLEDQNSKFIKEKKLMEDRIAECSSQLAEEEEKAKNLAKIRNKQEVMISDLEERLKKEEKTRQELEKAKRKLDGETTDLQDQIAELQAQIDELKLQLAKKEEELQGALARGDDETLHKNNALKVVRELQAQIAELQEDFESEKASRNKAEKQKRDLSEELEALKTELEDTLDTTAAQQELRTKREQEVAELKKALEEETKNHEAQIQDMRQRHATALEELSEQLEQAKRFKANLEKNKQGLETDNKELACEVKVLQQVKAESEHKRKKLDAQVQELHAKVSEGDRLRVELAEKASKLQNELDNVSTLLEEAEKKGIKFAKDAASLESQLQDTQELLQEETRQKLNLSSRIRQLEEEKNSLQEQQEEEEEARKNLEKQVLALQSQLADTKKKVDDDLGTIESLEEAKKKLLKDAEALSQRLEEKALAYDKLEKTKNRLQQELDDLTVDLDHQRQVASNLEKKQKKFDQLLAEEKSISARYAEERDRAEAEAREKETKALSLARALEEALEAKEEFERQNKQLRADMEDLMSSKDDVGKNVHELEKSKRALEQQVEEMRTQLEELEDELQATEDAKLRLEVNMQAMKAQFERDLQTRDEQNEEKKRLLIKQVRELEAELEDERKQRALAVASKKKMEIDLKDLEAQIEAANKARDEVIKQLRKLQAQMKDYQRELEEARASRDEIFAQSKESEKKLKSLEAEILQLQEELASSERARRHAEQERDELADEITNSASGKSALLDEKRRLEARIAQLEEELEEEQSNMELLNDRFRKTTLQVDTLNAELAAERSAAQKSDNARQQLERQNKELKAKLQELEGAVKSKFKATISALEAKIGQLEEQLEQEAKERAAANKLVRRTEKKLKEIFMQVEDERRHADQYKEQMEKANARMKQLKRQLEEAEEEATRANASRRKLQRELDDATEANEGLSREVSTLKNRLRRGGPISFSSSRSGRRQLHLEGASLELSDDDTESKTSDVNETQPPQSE", "chain of UniProt P51575 (whole entry, unmodified, looked up)": "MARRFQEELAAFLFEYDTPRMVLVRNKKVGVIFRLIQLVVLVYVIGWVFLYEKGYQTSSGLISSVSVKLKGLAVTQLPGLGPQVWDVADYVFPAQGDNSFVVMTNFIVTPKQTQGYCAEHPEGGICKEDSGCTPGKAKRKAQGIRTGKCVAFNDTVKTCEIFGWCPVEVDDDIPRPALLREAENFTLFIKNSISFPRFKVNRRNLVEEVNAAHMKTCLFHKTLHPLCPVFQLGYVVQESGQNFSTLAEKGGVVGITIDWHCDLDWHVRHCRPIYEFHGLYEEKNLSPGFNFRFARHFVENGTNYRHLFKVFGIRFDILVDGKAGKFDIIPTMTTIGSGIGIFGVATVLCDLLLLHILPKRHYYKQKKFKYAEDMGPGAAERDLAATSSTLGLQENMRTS", "chain of UniProt Q9UBN7 (whole entry, looked up)": "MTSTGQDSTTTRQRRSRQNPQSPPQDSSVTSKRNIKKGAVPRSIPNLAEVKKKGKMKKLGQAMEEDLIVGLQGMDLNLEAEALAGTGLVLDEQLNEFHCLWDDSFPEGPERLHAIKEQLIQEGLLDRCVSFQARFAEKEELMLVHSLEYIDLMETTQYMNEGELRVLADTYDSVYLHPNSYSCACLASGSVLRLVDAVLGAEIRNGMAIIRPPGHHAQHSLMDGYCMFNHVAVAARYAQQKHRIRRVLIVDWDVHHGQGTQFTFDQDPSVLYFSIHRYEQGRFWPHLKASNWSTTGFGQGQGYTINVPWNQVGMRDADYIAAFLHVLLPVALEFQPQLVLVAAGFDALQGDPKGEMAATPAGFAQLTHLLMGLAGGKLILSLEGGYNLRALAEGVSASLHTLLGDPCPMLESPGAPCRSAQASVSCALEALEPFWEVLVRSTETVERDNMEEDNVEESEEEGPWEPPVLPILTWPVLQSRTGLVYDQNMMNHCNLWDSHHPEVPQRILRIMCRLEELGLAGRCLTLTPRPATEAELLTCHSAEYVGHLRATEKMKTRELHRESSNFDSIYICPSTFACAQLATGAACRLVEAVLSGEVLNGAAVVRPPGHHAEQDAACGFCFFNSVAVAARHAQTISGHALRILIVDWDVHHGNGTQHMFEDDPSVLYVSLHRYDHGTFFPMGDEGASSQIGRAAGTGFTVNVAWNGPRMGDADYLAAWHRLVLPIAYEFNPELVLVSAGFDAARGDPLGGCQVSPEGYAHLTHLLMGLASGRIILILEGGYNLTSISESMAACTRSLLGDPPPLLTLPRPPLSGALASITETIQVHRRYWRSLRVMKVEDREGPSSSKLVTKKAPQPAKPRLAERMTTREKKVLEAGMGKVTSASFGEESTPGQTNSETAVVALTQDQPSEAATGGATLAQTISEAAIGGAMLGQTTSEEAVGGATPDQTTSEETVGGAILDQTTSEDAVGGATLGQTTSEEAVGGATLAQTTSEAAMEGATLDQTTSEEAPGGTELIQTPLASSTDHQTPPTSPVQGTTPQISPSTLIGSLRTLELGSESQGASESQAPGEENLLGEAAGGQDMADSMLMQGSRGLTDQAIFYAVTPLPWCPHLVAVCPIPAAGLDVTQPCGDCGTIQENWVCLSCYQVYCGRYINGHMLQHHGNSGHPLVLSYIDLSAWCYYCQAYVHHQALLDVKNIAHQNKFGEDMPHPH", "chain of UniProt P25090 (whole entry, looked up)": "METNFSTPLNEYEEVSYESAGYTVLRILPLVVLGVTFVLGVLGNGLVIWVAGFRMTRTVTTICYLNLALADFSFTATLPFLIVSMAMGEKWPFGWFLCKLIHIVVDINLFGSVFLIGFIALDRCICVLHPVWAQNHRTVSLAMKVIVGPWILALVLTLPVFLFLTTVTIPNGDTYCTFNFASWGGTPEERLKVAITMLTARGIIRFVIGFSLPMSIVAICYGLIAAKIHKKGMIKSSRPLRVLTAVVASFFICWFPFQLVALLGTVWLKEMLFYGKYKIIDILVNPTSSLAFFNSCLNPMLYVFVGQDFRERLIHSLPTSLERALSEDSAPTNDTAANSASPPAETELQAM", "chain of UniProt O75716 (whole entry, looked up)": "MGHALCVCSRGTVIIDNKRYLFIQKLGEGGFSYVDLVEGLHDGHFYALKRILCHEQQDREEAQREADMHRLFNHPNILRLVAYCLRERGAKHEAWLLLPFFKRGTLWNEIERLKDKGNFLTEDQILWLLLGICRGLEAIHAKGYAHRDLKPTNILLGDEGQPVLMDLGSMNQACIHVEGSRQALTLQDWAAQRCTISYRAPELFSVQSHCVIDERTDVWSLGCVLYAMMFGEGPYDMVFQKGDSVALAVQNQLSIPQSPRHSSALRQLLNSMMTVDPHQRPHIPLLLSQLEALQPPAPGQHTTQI"}
{"SMILES": "CN1CCN(c2cc(-c3ccncc3)c(-c3ccc4ccccc4c3)nn2)CC1", "tested on": "FPR2 (Homo sapiens, UniProt P25090)", "test": "antagonist, FLIPR", "conditions": "10 µM", "quantity": "inhibition", "result": "4.3%"}
{"SMILES": "O=C(O)CC[C@H](NC(=O)N[C@@H](CCCCNC(=O)[C@H](Cc1ccc2ccccc2c1)NC(=O)CCCCCNC(=O)CN1CCN(CC(=O)O)CCN(CC(=O)O)CCN(CC(=O)O)CC1)C(=O)O)C(=O)O [gallium-68 labelled]", "test": "gamma counting", "test system": "mouse, PC-3 xenograft, lung", "conditions": "intravenous, 3.7 MBq, 2 h", "quantity": "tissue uptake", "result": "1.84 ± 0.51 %ID/g"}
{"SMILES": "CCN1CCN(Cc2ccc(NC(=O)c3ccc(C)c(Oc4ccnc5[nH]ccc45)c3)cc2C(F)(F)F)CC1", "tested on": "NEK9 (Homo sapiens, UniProt Q8TD19)", "test system": "A-375", "conditions": "concentration not given", "quantity": "inhibition", "result": "-14%"}
{"SMILES": "COc1ccc(C(=O)NCc2ccc(C)c(C)c2)cc1", "tested on": "rep main protease", "test": "enzyme activity, inhibitor, FRET", "conditions": "10 µM", "quantity": "inhibition", "result": "< 0%"}
{"SMILES": "Cn1cc(-c2ccc(-c3cncc(Cl)c3N3CCC4(CCNC4=O)CC3)cc2)cn1", "tested on": "COLO 205", "test": "gene expression, microarray, measured: CCR7 mRNA", "conditions": "concentration not given, 2 h", "scale": "reference: untreated cells", "quantity": "log2 fold change", "result": -2}
{"SMILES": "CCS(=O)(=O)c1nc(S(=O)(=O)c2ccccc2Cl)c(N2CCN(C)C(=O)[C@H]2C)s1", "tested on": "ADRA2B (Homo sapiens, UniProt P18089)", "conditions": "10 µM", "quantity": "inhibition", "result": "10.6%"}
{"SMILES": "N[C@H]1[C@H](O[C@H]2[C@H](O)[C@@H](N)[C@H](O[C@H]3[C@H](O)[C@@H](N)[C@H](O[C@H]4[C@H](O)[C@@H](N)C(O)O[C@@H]4CO)O[C@@H]3CO)O[C@@H]2CO)O[C@H](CO)[C@@H](O)[C@@H]1O (some centres unmarked)", "test": "radioligand binding, competition binding", "test system": "membrane fractions", "conditions": "2 µM, with: radiolabelled LCO-V(C18:1,NMe)", "quantity": "competition of LCO binding", "result": "0% and 3.4%"}
{"SMILES": "NC/C(=C\\F)COc1cccc(Cn2c(=S)[nH]c(=O)c3[nH]cnc32)c1", "tested on": "hamster KATP channel", "test": "radioligand binding", "conditions": "10 µM", "quantity": "inhibition", "result": "< 50%"}
{"SMILES": "Oc1ccccc1-c1n[nH]cc1-c1ccnc2ccccc12", "tested on": "PTK2 (Candida albicans)", "test": "kinase binding, MIB/MS competition", "test system": "Candida albicans lysate", "conditions": "1 µM", "scale": "reference: DMSO", "quantity": "log2 fold change", "result": -0.16}
{"SMILES": "O=C(NO)c1ccc(CN2CCCCc3ccccc32)c(F)c1", "tested on": "ADRA1D (Homo sapiens, UniProt P25100)", "test": "radioligand binding, PDSP radioligand binding", "conditions": "10 µM", "quantity": "inhibition", "result": "-8.56%"}
{"SMILES": "Nc1ncnc2c1ncn2[C@@H]1O[C@H](COP(=O)(O)CP(=O)(O)OP(=O)(O)O)[C@@H](O)[C@H]1O", "tested on": "P2X purinoceptor 1 (P2RX1, Homo sapiens, UniProt P51575, D170A)", "test": "saturation binding", "test system": "HEK293", "conditions": "1 nM", "quantity": "specific binding", "result": "1.5 CCPM and 8 CCPM and -12 CCPM"}
{"SMILES": "Cc1ccc(C(=O)Nc2ccc(S(=O)(=O)O)c3cc(S(=O)(=O)O)cc(S(=O)(=O)O)c23)cc1NC(=O)c1cccc(NC(=O)Nc2cccc(C(=O)Nc3cc(C(=O)Nc4ccc(S(=O)(=O)O)c5cc(S(=O)(=O)O)cc(S(=O)(=O)O)c45)ccc3C)c2)c1", "tested on": "Cullin-1, C-terminal domain with ROC1 (Homo sapiens, UniProt Q13616)", "test": "FRET", "conditions": "0.8 µM", "quantity": "inhibition", "result": "50%"}
{"SMILES": "COc1c(C#N)ccnc1N1C2CCC1CN(C(=O)c1cccnc1-n1cccn1)C2", "tested on": "central benzodiazepine receptor", "test": "binding", "conditions": "10 µM", "quantity": "inhibition", "result": "-15%"}
{"SMILES": "[2H]c1cc(C)c(NC(=O)c2cnc(Nc3cc(N4CCCCC4)nc(C)n3)s2)c(Cl)c1", "tested on": "BRAF (Homo sapiens, UniProt P15056, V600E)", "conditions": "0.01 µM", "quantity": "inhibition", "result": "< 30%"}
{"SMILES": "N[C@H]1[C@H](O[C@H]2[C@H](O)[C@@H](N)[C@H](O[C@H]3[C@H](O)[C@@H](N)[C@H](O[C@H]4[C@H](O)[C@@H](N)[C@H](O[C@H]5[C@H](O)[C@@H](N)C(O)O[C@@H]5CO)O[C@@H]4CO)O[C@@H]3CO)O[C@@H]2CO)O[C@H](CO)[C@@H](O)[C@@H]1O (some centres unmarked)", "test": "radioligand binding, competition binding", "test system": "membrane fractions", "conditions": "2 µM, with: radiolabelled LCO-V(C18:1,NMe)", "quantity": "competition of LCO binding", "result": "11% and 12% and 10%"}
{"SMILES": "O=C(COP(=O)(O)O)[C@@H](O)[C@H](O)[C@H](O)COP(=O)(O)O", "tested on": "Myosin-10 (Homo sapiens, UniProt P35580)", "test": "thermal proteome profiling, measured: MYH10", "test system": "HepG2 cell lysate", "conditions": "concentration not given, 57 over 37 °C", "scale": "reference: compound over control", "quantity": "thermal stability ratio", "result": "0.468 and 0.973 and 0.5"}
{"SMILES": "O=C(Nc1cccc2c(=O)cc(-c3nnn[nH]3)oc12)c1ccc(OCCCCc2ccccc2)cc1", "tested on": "LRRC8A/LRRC8C (Homo sapiens, UniProt Q8IWT6+Q8TDW0, M48D/T48D)", "test": "ion current, whole-cell patch clamp", "test system": "HCT LRRC8-/- cells", "conditions": "0.3 µM, +100 mV, T48D/M48D heteromers", "quantity": "inhibition", "result": "2.34% and -2.2% and 0.358%"}
{"SMILES": "COc1cc(-c2cc(C(C)=O)n3ccccc23)c(OC)cc1Cn1ccnc1", "tested on": "EP300 (Homo sapiens, UniProt Q09472)", "conditions": "1 µM", "quantity": "inhibition", "result": "41%"}
{"SMILES": "COc1ccc(C(=O)NCc2cc(Br)c(OC)c(OC)c2)cc1OC", "tested on": "rep papain-like protease", "test": "enzyme activity, inhibitor, FRET", "conditions": "10 µM", "quantity": "inhibition", "result": "< 0%"}
{"SMILES": "OO", "tested on": "Histone acetyltransferase p300, BHC core (EP300, Homo sapiens, UniProt Q09472)", "test": "enzyme activity", "conditions": "250 µM, with: p300 BHC, with 1 mM DTT", "quantity": "inhibition", "result": "2 ± 2%"}
{"SMILES": "CC[C@@H]1[C@H](F)C(=O)N[C@@H]1COc1nccc2cc(C(N)=O)c(OC)cc12", "tested on": "ATM (Homo sapiens, UniProt Q13315)", "test": "ATP-site probe binding, ActivX profiling", "test system": "THP-1 cell lysate", "conditions": "0.01 mM", "quantity": "inhibition", "result": "12.7%"}
{"SMILES": "Cc1cc(-c2ccnc3[nH]cc(F)c23)cc(F)c1[C@@]1(O)[C@H](C)CN(C(=O)CN)C[C@@H]1C", "tested on": "STK16 (Homo sapiens, UniProt O75716)", "test": "ATP probe binding, KiNativ, measured: Lys2 site", "test system": "HEK293T cell lysate", "conditions": "0.1 µM", "quantity": "inhibition", "result": "17.1%"}
{"SMILES": "O=C(O)CCn1sc2ccccc2c1=O", "tested on": "HDAC6 ZnF-UBD domain", "quantity": "Kd", "result": "> 1000 µM"}
{"SMILES": "CCC(CC(=O)NCc1cc(Br)c(OC)c(OC)c1)c1ccccc1 (centres unmarked)", "tested on": "rep main protease", "test": "enzyme activity, inhibitor, FRET", "conditions": "10 µM", "quantity": "inhibition", "result": "< 0%"}
{"SMILES": "O=C(O)CNC(=O)c1ccc(C(=O)N2CCC(c3ccc(Cl)cc3)CC2)cn1", "tested on": "HDAC6 ZnF-UBD domain", "quantity": "Kd", "result": "415 µM"}
{"SMILES": "CC/C(=N\\NC(=O)NCc1cccc(O)c1)c1ccc(O)c(C)c1O", "tested on": "5'-AMP-activated protein kinase catalytic subunit alpha-2, with beta1 gamma1 (PRKAA2, Homo sapiens, UniProt P54646)", "test": "kinase activity", "conditions": "0.1 µM", "quantity": "inhibition", "result": "18.8%"}
{"SMILES": "O=C(C[C@@H](C(F)F)n1ccc(F)n1)N1CCC(O)(Cn2cnc3c(cnn3-c3ccc(F)cc3)c2=O)CC1", "tested on": "USP7 (Homo sapiens, UniProt Q93009)", "test": "enzyme activity, inhibitor", "conditions": "5 µM", "quantity": "inhibition", "result": "104% and 101%"}
{"SMILES": "CSc1ccccc1C(=O)NCc1cc(O)c(O)c(Br)c1", "tested on": "rep papain-like protease", "test": "enzyme activity, FRET", "conditions": "concentration not given", "quantity": "inhibition", "result": "inactive"}
{"SMILES": "Cc1cc2c(cc1N1C(=O)c3cccc4c(CCCO)ccc(c34)C1=O)n(C)c(=O)n2C (racemic)", "tested on": "BPTF (Homo sapiens, UniProt Q12830)", "test": "binding, BROMOscan binding", "conditions": "1000 nM", "quantity": "inhibition", "result": "37%"}
{"SMILES": "CC(C)C[C@H](NC(=O)C[C@H](O)[C@H](CC(C)C)NC(=O)[C@H](Cc1c[nH]cn1)NC(=O)CNC(=O)[C@@H](NC(=O)[C@H](C)NC(=O)[C@H](Cc1c[nH]c2ccccc12)NC(=O)[C@H](CCC(N)=O)NC(=O)[C@@H](Cc1ccccc1)NC(=O)COCCOCCNC(=O)CCC(C(=O)O)N1CCN(CC(=O)O)CCN(CC(=O)O)CCN(CC(=O)O)CC1)C(C)C)C(N)=O (some centres unmarked) [lutetium-177 labelled]", "test system": "BALB/c nu/nu mice, female, bone", "conditions": "50 pmol, 1 h, with: PBS co-injection", "quantity": "tissue uptake", "result": "0.2 ± 0.1 %ID/g"}
{"SMILES": "COc1cc(C(=O)NS(=O)(=O)c2ccccc2C)ccc1Cc1cn(C)c2ccc(NC(=O)OC3CCCC3)cc12", "tested on": "LRRC8A/LRRC8C (Homo sapiens, UniProt Q8IWT6+Q8TDW0, Y124F/Y126F)", "test": "ion current, inhibitor, whole-cell patch clamp", "test system": "HCT116 LRRC8 knockout, transfected", "conditions": "100 µM, +100 mV, mutant Y124F/Y126F", "quantity": "inhibition", "result": "85.5%"}
{"SMILES": "Oc1ccc(/C=C/c2cc(O)cc(O)c2)cc1", "tested on": "α-amylase (human)", "test": "enzyme activity, inhibitor", "conditions": "100 µM", "quantity": "inhibition", "result": "< 20%"}
{"note": "A few entries again:"}
{"SMILES": "Cn1cc(-c2ccc(-c3cncc(Cl)c3N3CCC4(CCNC4=O)CC3)cc2)cn1", "tested on": "COLO 205", "test": "gene expression, microarray, measured: CCR7 mRNA", "conditions": "concentration not given, 2 h", "scale": "reference: untreated cells", "quantity": "log2 fold change", "result": -2}
{"SMILES": "CCS(=O)(=O)c1nc(S(=O)(=O)c2ccccc2Cl)c(N2CCN(C)C(=O)[C@H]2C)s1", "tested on": "ADRA2B (Homo sapiens, UniProt P18089)", "conditions": "10 µM", "quantity": "inhibition", "result": "10.6%"}
{"SMILES": "N[C@H]1[C@H](O[C@H]2[C@H](O)[C@@H](N)[C@H](O[C@H]3[C@H](O)[C@@H](N)[C@H](O[C@H]4[C@H](O)[C@@H](N)C(O)O[C@@H]4CO)O[C@@H]3CO)O[C@@H]2CO)O[C@H](CO)[C@@H](O)[C@@H]1O (some centres unmarked)", "test": "radioligand binding, competition binding", "test system": "membrane fractions", "conditions": "2 µM, with: radiolabelled LCO-V(C18:1,NMe)", "quantity": "competition of LCO binding", "result": "0% and 3.4%"}
{"SMILES": "NC/C(=C\\F)COc1cccc(Cn2c(=S)[nH]c(=O)c3[nH]cnc32)c1", "tested on": "hamster KATP channel", "test": "radioligand binding", "conditions": "10 µM", "quantity": "inhibition", "result": "< 50%"}
